Results of several laboratories.
Protocols differ between the studies behind these lines. Several values in a cell are separate wells, animals, samples, runs or records. Numbers after ± are the reported error.
Penicillin-binding protein 2B: Penicillin-binding protein 2B (Streptococcus pneumoniae, UniProt P0A3M6)
AKT2: RAC-beta serine/threonine-protein kinase (AKT2, Homo sapiens, UniProt P31751)
UniProt P06276, sequence (whole entry, looked up): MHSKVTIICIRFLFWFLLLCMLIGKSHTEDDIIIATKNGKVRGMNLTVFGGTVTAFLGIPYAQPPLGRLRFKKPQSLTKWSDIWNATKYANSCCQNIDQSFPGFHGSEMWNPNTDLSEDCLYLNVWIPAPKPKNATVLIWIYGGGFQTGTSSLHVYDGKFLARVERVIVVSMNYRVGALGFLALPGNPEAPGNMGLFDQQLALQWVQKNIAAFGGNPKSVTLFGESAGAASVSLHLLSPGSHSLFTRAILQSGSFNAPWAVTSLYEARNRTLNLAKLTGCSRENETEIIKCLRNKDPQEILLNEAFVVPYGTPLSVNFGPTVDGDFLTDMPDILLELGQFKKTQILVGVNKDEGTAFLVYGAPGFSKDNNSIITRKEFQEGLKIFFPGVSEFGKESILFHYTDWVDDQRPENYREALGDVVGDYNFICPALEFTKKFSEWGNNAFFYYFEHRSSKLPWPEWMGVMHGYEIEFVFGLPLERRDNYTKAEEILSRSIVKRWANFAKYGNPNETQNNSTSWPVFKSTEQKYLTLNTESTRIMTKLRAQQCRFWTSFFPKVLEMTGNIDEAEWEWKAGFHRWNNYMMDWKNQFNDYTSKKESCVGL
UniProt Q62351, sequence (whole entry, looked up): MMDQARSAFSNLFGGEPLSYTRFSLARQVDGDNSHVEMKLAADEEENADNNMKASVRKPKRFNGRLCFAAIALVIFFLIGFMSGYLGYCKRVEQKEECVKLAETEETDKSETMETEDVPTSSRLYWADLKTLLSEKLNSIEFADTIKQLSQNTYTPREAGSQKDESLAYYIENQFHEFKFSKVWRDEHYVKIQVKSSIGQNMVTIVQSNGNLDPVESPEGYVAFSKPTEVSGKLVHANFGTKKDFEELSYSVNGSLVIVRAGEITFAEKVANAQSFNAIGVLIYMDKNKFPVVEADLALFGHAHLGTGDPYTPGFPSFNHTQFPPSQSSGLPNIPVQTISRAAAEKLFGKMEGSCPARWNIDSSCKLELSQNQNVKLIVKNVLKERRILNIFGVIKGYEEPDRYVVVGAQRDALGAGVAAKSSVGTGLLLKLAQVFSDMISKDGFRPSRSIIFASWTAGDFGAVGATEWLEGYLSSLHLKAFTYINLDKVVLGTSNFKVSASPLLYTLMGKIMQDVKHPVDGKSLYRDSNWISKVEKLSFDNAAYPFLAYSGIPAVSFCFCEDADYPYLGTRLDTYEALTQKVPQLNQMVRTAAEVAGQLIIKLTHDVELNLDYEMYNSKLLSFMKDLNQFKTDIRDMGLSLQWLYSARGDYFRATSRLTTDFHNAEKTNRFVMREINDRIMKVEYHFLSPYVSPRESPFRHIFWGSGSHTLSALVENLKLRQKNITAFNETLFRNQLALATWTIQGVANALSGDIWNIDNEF
UniProt Q05941, sequence (whole entry, looked up): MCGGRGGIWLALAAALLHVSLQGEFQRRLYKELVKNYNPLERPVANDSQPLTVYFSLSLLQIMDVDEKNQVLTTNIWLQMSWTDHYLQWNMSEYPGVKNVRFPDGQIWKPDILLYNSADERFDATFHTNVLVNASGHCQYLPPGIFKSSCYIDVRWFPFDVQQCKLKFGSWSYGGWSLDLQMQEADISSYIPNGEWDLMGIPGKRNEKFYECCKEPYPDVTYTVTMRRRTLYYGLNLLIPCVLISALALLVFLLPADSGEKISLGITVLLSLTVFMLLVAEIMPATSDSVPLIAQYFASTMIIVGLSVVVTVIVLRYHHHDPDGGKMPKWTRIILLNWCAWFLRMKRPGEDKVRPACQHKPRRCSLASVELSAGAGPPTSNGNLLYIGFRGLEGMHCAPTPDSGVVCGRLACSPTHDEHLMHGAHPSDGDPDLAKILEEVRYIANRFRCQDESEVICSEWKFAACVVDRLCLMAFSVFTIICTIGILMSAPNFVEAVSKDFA
UniProt P31751, sequence (whole entry, looked up): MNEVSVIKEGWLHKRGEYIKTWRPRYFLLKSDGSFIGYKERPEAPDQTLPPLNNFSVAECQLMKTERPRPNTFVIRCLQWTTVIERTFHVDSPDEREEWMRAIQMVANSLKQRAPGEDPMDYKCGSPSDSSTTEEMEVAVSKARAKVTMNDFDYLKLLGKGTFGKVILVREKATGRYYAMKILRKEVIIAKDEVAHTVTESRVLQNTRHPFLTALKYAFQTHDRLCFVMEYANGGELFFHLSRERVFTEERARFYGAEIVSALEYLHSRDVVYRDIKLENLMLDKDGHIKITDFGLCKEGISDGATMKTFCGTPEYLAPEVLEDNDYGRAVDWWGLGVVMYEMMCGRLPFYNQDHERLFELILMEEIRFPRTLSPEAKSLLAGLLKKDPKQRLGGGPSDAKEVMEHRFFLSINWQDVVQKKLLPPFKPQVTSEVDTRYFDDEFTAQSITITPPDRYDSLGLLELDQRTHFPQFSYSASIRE
UniProt P10275, sequence (whole entry, looked up): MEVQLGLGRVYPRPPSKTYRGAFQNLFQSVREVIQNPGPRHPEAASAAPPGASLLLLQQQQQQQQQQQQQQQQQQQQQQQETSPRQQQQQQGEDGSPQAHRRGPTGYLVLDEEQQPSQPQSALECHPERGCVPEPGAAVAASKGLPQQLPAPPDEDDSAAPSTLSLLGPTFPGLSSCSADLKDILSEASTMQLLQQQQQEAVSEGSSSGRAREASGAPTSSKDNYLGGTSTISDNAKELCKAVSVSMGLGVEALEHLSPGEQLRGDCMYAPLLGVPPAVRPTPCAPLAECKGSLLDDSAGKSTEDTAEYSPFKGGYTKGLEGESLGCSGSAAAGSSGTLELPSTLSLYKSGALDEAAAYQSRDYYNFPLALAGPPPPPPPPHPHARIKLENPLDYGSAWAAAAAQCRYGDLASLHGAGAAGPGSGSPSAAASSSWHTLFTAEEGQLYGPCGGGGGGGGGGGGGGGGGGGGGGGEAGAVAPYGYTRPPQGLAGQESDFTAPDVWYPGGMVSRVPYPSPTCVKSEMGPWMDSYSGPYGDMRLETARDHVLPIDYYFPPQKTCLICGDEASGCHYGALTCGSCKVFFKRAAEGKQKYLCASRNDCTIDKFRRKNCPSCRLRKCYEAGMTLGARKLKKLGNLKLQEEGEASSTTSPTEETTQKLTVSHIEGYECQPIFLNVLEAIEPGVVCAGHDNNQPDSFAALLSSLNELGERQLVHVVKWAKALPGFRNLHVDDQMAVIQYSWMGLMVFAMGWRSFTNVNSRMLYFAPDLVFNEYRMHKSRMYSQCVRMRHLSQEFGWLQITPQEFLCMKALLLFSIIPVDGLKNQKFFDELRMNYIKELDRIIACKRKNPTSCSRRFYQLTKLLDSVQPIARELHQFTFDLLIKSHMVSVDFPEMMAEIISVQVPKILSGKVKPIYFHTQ
UniProt P62813, sequence (whole entry, looked up): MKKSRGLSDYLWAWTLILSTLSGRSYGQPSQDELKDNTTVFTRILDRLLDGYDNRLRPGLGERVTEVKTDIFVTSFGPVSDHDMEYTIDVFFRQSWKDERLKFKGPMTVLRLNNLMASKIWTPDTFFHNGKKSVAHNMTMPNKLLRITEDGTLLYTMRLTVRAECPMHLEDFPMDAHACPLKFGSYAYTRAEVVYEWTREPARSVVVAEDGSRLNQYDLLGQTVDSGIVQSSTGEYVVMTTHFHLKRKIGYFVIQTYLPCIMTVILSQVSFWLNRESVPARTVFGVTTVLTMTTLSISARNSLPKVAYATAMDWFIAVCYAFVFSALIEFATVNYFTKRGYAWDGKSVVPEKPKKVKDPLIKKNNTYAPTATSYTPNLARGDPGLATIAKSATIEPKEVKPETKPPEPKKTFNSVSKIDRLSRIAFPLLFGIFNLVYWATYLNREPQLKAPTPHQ
UniProt P31152, sequence (whole entry, looked up): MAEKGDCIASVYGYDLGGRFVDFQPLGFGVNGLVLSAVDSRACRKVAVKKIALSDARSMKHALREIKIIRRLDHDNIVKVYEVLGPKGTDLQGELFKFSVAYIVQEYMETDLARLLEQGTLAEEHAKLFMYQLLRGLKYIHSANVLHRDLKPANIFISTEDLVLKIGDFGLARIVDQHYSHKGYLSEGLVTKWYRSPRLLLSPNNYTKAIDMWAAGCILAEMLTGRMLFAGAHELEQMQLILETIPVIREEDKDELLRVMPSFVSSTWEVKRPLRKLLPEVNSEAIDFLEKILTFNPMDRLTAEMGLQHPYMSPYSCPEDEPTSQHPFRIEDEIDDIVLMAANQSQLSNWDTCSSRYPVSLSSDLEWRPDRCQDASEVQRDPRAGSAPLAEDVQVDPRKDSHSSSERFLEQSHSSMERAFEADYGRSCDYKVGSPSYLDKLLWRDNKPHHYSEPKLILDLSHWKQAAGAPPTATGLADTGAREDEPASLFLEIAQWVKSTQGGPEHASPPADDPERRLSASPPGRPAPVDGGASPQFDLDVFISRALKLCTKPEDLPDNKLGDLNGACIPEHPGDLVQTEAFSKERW
UniProt Q15418, sequence (whole entry, looked up): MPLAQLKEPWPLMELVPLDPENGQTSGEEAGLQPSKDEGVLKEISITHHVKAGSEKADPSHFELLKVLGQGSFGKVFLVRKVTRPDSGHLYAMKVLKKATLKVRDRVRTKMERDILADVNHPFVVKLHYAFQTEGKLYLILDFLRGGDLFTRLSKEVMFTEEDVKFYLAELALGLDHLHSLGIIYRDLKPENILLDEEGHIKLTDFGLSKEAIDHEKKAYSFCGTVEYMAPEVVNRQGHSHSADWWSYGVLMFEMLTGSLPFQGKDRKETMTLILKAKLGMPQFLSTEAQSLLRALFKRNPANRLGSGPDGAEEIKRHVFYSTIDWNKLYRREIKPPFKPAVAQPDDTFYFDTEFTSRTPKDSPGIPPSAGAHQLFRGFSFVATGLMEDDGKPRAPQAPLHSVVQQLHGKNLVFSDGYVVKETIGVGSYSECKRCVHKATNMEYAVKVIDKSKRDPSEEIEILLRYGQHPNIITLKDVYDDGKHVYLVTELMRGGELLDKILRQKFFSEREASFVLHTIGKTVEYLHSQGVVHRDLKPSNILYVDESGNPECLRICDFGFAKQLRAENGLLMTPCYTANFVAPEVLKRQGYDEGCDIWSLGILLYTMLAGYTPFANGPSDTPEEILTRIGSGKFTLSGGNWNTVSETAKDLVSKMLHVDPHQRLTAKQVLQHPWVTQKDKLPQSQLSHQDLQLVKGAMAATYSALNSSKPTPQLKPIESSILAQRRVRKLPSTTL

CC(=O)P(=O)(O)OCCc1cn([C@H](Cc2ccccc2)C(=O)O)nn1  Ki fold change (dxs (Pseudomonas aeruginosa, UniProt Q9KGU7, R106A); concentration not given, variant enzyme; relative to: wild type): 16.5 fold
CO/N=C(\C(=O)N[C@@H]1C(=O)N2C(C(=O)O)=C(COC(C)=O)CS[C@H]12)c1csc(N)n1  kinact/KI (Penicillin-binding protein 2B; inhibitor): 5.4 ± 1.3 M⁻¹ s⁻¹
O=C(O)C(F)(F)C(F)(F)C(F)(F)C(F)(F)C(F)(F)C(F)(F)C(F)(F)F  Jmax (Solute carrier family 22 member 12 (SLC22A12, Homo sapiens, UniProt Q96S37); uptake, substrate, two-transporter equation fit; HEK293 cells stably expressing SLC22A12; 2.5 min, 37 °C): 1520 ± 841 pmol/min/mg protein
CC(C)C[C@H](NC(=O)[C@H](CCC1CCCCC1)NC(=O)[C@@H]1CCCN1C(=O)c1ccc(F)cc1)C(=O)NC(C)(C)C(=O)N[C@@H](CC(C)C)C(=O)N[C@@H](CC(C)C)C(=O)NC(C)(C)C(=O)NC(C)(C)C(=O)NCCC(=O)NC1(CN(C)C)CCC1  DCCD-modified c-subunits (ATP synthase F(0) complex subunit C1, mitochondrial (ATP5MC1, Bos taurus, UniProt P32876); DCCD labeling competition; 1 µM, 5 min preincubation, 5 min labeling): > 60%
Clc1ccc(Nc2nc3ccccc3c3nc(C4CCCCC4)[nH]c23)cc1Cl  activity class (Cholinesterase (BCHE, Homo sapiens, UniProt P06276); biochemical; concentration not given): inactive
C[n+]1cn([C@@H]2O[C@H](COP(=O)([O-])OP(=O)(O)OP(=O)(O)OC[C@H]3O[C@@H](n4cnc5c(=O)[nH]c(N)nc54)[C@H](O)[C@@H]3O)[C@@H](O)[C@H]2O)c2nc(N)[nH]c(=O)c21  ΔH (m7GpppX diphosphatase, C-terminal domain (DCS1, Saccharomyces cerevisiae, UniProt Q06151, H268N); binding, ITC): -10.8 kcal/mol
COc1cc(N)c(Cl)cc1C(=O)NC1CN2CCC1CC2 (stereo not shown)  log2 fold change (Probable G-protein coupled receptor 150 (GPR150, Homo sapiens, UniProt Q8NGU9); β-arrestin recruitment, TANGO luminescence, refers to: GPR150; concentration not given; relative to: basal luminescence): 0.019
Cc1cc(-c2ccccc2)nnc1NCCN1CCOCC1  efficacy (Cholinesterase (BCHE, Homo sapiens, UniProt P06276); concentration not given, Triton): -98.2 ± 5.6%
CC[C@H](CO)Nc1nc(NCc2ccc(-c3ccccn3)cc2)c2ncn(C(C)C)c2n1  binding score (Dual specificity protein kinase CLK1 (CLK1, Homo sapiens, UniProt P49759); KINOMEscan competition binding; 10 µM, primary screen; direction not given): 5.1
CN(C)CCCN1c2ccccc2Sc2ccccc21  IC50 (Plasmodium falciparum; 7G8): 7.94 µM
NP(N)(=O)NC(=O)c1ccc(F)cc1  efficacy (Cholinesterase (BCHE, Homo sapiens, UniProt P06276); concentration not given, Triton): -106 ± 0.34%
CC1(C)C(C=C(Cl)Cl)C1C(=O)OCc1cccc(Oc2ccccc2)c1 (stereo not shown)  remaining activity (uncharacterized protein (Anopheles coluzzii, UniProt A0A6E8VQK1); enzyme activity, inhibitor; Sf9 cell homogenate; 116.3 µM, 0.1667 h, with: α-naphthyl acetate substrate; relative to: no inhibitor): 77%
C[C@H]1CN(c2n[nH]c3nc(N[C@H]4CC[C@H](NS(=O)(=O)CCC(F)(F)F)CC4)ncc23)CCO1  relative abundance (AKT2; inhibitor, Kinobeads competition profiling; 0.8 µM; relative to: vehicle): 1.19
COc1cc2nccc(Oc3ccc(NC(=O)c4cc5c(n(-c6ccccc6)c4=O)CCCC5=O)nc3)c2cc1OC  selectivity ratio (Tyrosine-protein kinase FRK (FRK, Homo sapiens, UniProt P42685); cell viability, CellTiter-Glo; Ba/F3 expressing recombinant kinase; relative to: FRK IC50 over AXL IC50): > 100
NCC(=O)NCCC(c1ccccc1)c1ccccc1  IC50 (Plasmodium falciparum; 7G8): 3.98 µM
O=C(c1ccc(Cl)cc1)N1CCN2C(=O)N(OC(=O)N3CCOc4ccccc43)C(=O)C2C1 (stereo not shown)  mean protein ratio (Prolyl endopeptidase FAP (FAP, Homo sapiens, UniProt Q12884); MS-based ABPP; SW-620 conditioned medium; 10 µM, 1 h, 37 °C; relative to: compound over DMSO, lower = more inhibition): 0.96
Cc1cn([C@H]2C[C@H](O)[C@@H](COP(=O)(O)OP(=O)(O)OP(=O)(O)O)O2)c(=O)[nH]c1=O  kcat (Gag-Pol polyprotein, reverse transcriptase (gag-pol, Human immunodeficiency virus type 1 group M subtype B, UniProt P04585, K653N); nucleotide misincorporation, steady-state kinetics; K66N RT, with: matched template/primer, template T): 0.189 ± 0.037 s⁻¹
Nc1ncnc2c1ncn2[C@@H]1O[C@H](COP(=O)(O)OP(=O)(O)OP(=O)(O)O)[C@@H](O)[C@H]1O  off-rate (kr1) (Cell cycle histidine kinase CckA, cytoplasmic region (Caulobacter vibrioides, UniProt Q9X688); binding, global kinetic model fit of phosphorylation): 0.46 s⁻¹
O=C(Nc1cnccc1Cl)N1CCN(Cc2ccc3c(c2)OC(F)(F)O3)CC1  probe labelling (Protein S100-A16 (Rattus norvegicus, UniProt A0ACM8QDC9); competitive ABPP with azido-FP probe; rat brain membrane fraction; 10 µM, unit not given; relative to: DMSO): -14.5
Oc1cc(Cl)cc(-c2cccc(Cl)c2)c1  IC25 (Androgen receptor (AR, Homo sapiens, UniProt P10275); reporter gene, antagonist; 24 h, with: DHT 2 nM): 0.7 µM
COc1ncccc1-c1cnn2ccc(N3CCN(C(=O)OC(C)C)CC3)nc12  remaining binding (Ribosomal protein S6 kinase alpha-1, N-terminal kinase domain (RPS6KA1, Homo sapiens, UniProt Q15418); KINOMEscan binding; 1 µM; relative to: untreated control): 100%
Cc1nn(C)cc1-c1nc2c(N3CCN(Cc4ccc(Cl)cc4)CC3)c(Cl)cnc2[nH]1  remaining binding (Mitogen-activated protein kinase 4 (MAPK4, Homo sapiens, UniProt P31152); KINOMEscan; 1 µM; relative to: DMSO control): 96%
COc1cc(Nc2ncc(F)c(Nc3ccc4c(n3)NC(=O)C(C)(C)O4)n2)cc(OC)c1OC  inhibition (Mitogen-activated protein kinase kinase kinase 13 (MAP3K13, Homo sapiens, UniProt O43283); KINOMEscan; 10 µM, LZK): 22%
CN(C(=O)n1cnc(-c2ccc[n+]([O-])c2)c1)C1CCCCC1  inhibition (Histamine H1 receptor (HRH1, Homo sapiens, UniProt P35367); radioligand binding; 50 µM, with: [3H]pyrilamine): 11%
Cc1[nH]c(C)c(S(=O)(=O)Nc2ccc(S(F)(F)(F)(F)F)cc2)c1C(=O)N1CCC(F)(F)C1  Bmax increase (D(3) dopamine receptor (DRD3, Homo sapiens, UniProt P35462); binding; membranes; 100 µM, with: [3H]dopamine): 64%
O=C(O)COP(=O)(O)O  Ki ratio (TPI1 (Saccharomyces cerevisiae, UniProt P00942, Y208S); enzyme activity, competitive inhibitor, GPDH/NADH-coupled; pH 7.5, 25 °C, ionic strength 0.1 NaCl, with: glyceraldehyde 3-phosphate substrate; relative to: mutant over wild type): 50
CC[C@@H](C)[C@@H](NC(=O)[C@@H](Cc1ccc(O)cc1)NC(=O)[C@H]1CCCN1C(=O)[C@@H](CCCNC(=N)N)NC(=O)[C@H](N)Cc1c[nH]cn1)C(=O)N[C@H](C)C(=O)N[C@H](Cc1c[nH]cn1)C(=O)N[C@H](CCCNC(=N)N)C(=O)N[C@H](CCCCNC(=O)c1cccc(S(=O)(=O)F)c1)C(=O)N[C@H](Cc1ccc(O)cc1)C(=O)N[C@H](CO)C(=O)N[C@H](Cc1ccccc1)C(N)=O  surface expression (Transferrin receptor protein 1 (Tfrc, Mus musculus, UniProt Q62351); flow cytometry; DC2.4; 2 h, pH 7.4, unit not given; relative to: 0 h): 0.804 and 0.801
CC12CCC(CC1)C(C)(C)O2  activity decrease (1,8-cineole 2-endo-monooxygenase (cinA, Citrobacter braakii, UniProt Q8VQF6, N242A); NADPH turnover; concentration not given, N242A mutant; relative to: wild type): 70%
CCN(CC)CCCC[C@H](NC(=O)[C@H](CC(C)C)NC(=O)[C@H](C)NC(=O)[C@H](Cc1ccccc1)NC(=O)c1ccc(C(C)(C)C)cc1)C(=O)N[C@@H](CO)C(=O)OC  specific binding (Type-1 angiotensin II receptor (AGTR1, Homo sapiens, UniProt P30556); antagonist, radioligand binding; 10 µM; relative to: control binding): 104%
NS(=O)(=O)C(F)(F)F  binding free energy (Carbonic anhydrase 1 (CA1, Homo sapiens, UniProt P00915); urea denaturation shift, Trp fluorescence; 10 µM, pH 6.0): -9.2 kcal/mol
COc1ccc2c3c([nH]c2c1)CCN(C)CC3.O=C(O)/C=C/C(=O)O  recovery time constant (Neuronal acetylcholine receptor subunit alpha-7 (Chrna7, Rattus norvegicus, UniProt Q05941); ion current, inhibitor, two-electrode voltage clamp; Xenopus laevis oocytes; 10 µM, rat receptor, with: acetylcholine 100 µM): 8.6 s
COc1c(N2CC3CCCN(C(=O)OCc4ccc([N+](=O)[O-])cc4)C3C2)c(F)cc2c(=O)c(C(=O)O)cn(C3CC3)c12 (stereo not shown)  kcat (Oxygen-insensitive NAD(P)H nitroreductase (nfsB, Escherichia coli K-12, UniProt P38489); substrate; with: NADH 100 µM): 0.0508 s⁻¹
[2H]c1c([2H])c([C@]2([2H])CCCN2C(=O)C(C)(C)Oc2ccc3cn[nH]c3c2)c([2H])c([2H])c1C([2H])([2H])[2H]  remaining binding (Fibroblast growth factor receptor 1 (FGFR1, Homo sapiens, UniProt P11362); KINOMEscan; 1 µM; relative to: DMSO control): 80%
NCc1cc(=O)[nH]o1  maximal response (GABA-A receptor; alpha-1/beta-2/gamma-2 (Rattus norvegicus, UniProt P18508+P62813+P63138); chloride current, agonist, whole-cell patch clamp; HEK293 expressing GABAA; 30 s; relative to: maximum): 116%
CCN(C)C(=O)Oc1ccc(/C=C/C(=O)NC2CCN(Cc3ccccc3)CC2)cc1  selectivity ratio (Cholinesterase (BCHE, Equus caballus, UniProt P81908); Ellman; equine serum BuChE; relative to: AChE IC50 over BuChE IC50): 0.1
O=C(Nc1cccnn1)N1CCC(=Cc2cccc(Oc3ccc(C(F)(F)F)cn3)c2)CC1  inhibition (GABAA receptor chloride channel, rat; binding; 10 µM, with: [3H]TBOB): 46%
CN1CCN(c2cc(-c3ccncc3)c(-c3ccc4ccccc4c3)nn2)CC1  activation (Gastrin/cholecystokinin type B receptor (CCKBR, Homo sapiens, UniProt P32239); agonist, FLIPR; 12.5 µM): 1.7%
CC(C)OC(=O)C1=CN(C(=O)c2ccc(F)c(F)c2)CC(C)(C)c2c1[nH]c1ccccc21  efficacy (Cholinesterase (BCHE, Homo sapiens, UniProt P06276); concentration not given, Triton): -58.9 ± 2.44%
CCN1CCN(C(=O)N[C@@H](C(=O)N[C@@H]2C(=O)N3[C@@H]2SC(C)(C)[C@@H]3C(=O)O)c2ccccc2)C(=O)C1=O  kinact/KI (Penicillin-binding protein 2B; inhibitor): 15000 ± 810 M⁻¹ s⁻¹
COc1ccc(N2C(=O)N(c3c(C)cccc3Cl)Cc3cnc(Nc4ccc(C5CCN(C)CC5)cc4OC)nc32)nc1  inhibition (AKT2; kinase activity; 0.5 µM): 2.75%

For quick reference, copied from above:
CCN1CCN(C(=O)N[C@@H](C(=O)N[C@@H]2C(=O)N3[C@@H]2SC(C)(C)[C@@H]3C(=O)O)c2ccccc2)C(=O)C1=O  kinact/KI (Penicillin-binding protein 2B; inhibitor): 15000 ± 810 M⁻¹ s⁻¹
Cc1cc(-c2ccccc2)nnc1NCCN1CCOCC1  efficacy (Cholinesterase (BCHE, Homo sapiens, UniProt P06276); concentration not given, Triton): -98.2 ± 5.6%
CCN(C)C(=O)Oc1ccc(/C=C/C(=O)NC2CCN(Cc3ccccc3)CC2)cc1  selectivity ratio (Cholinesterase (BCHE, Equus caballus, UniProt P81908); Ellman; equine serum BuChE; relative to: AChE IC50 over BuChE IC50): 0.1
